Published values of several laboratories.
Every numbered part comes from another study and shows a few of its results, in no order. Changes are numbered by the printed parent chain.

Series 1
Target: Prothrombin, mature alpha-thrombin (F2, Homo sapiens, UniProt P00734)
Method: aptamer microarray, sandwich
Form: DNA with 2'F-ANA
Matrix: in vitro
Concentration: 200 nM
Setting: whole 15-mer aptamer, many near background
With: Cy3 exosite-II aptamer, 400 nM
Reading: higher = stronger binding
Endpoint: mean fluorescence intensity
Sequence: GGTTGGTGTGGTTGG
Modification = 2'F-ANA at 2 4 5 7 8 9 12 13 14; result = 46.9 a.u.
Modification = 2'F-ANA at 1 4 5 7; result = 60.5 a.u.
Modification = 2'F-ANA at 1 4 5 6 7 8 9 10 11 14 15; result = 49.7 a.u.
Modification = 2'F-ANA at 2 5 6 8 9 10 11 13 15; result = 61.5 a.u.
Modification = 2'F-ANA at 2 5 6 7 10 12 13; result = 51.1 a.u.
Modification = 2'F-ANA at 3 6 10 11 13 14; result = 322 a.u.
Modification = 2'F-ANA at 8 10 11 12 14 15; result = 98.5 a.u.
Modification = 2'F-ANA at 2 4 8 12 15; result = 816 a.u.

Series 2
Variant: R45Y
Target: ABI1, truncated, D143A, DHFR fusion (Arabidopsis thaliana)
Method: DHFR PCA, deep sequencing
Matrix: yeast
Setting: methotrexate growth selection, single substitutions
Relative to: wild-type fitted maximum
Reading: higher = stronger binding
Endpoint: relative binding score
Starting sequence: PYL1, truncated, DHFR fusion (Arabidopsis thaliana); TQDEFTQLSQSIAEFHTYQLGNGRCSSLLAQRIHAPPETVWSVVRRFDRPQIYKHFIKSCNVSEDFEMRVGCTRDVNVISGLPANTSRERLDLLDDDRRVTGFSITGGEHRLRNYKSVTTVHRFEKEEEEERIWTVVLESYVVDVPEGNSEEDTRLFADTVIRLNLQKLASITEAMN; partner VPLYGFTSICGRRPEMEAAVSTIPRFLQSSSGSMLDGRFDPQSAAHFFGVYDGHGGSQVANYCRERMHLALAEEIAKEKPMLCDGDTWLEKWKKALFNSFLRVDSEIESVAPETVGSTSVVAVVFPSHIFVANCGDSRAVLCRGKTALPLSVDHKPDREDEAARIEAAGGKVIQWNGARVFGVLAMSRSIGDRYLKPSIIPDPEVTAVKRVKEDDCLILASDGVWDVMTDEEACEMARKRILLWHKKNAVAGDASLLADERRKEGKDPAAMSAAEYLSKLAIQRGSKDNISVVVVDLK
conditions = with: (+)-ABA 0.11 µM; result = -13.1%
conditions = with: (+)-ABA 4.8 µM; result = -5.54%
conditions = with: (+)-ABA 0 µM; result = -8.89%
conditions = with: (+)-ABA 17 µM; result = 9.93%
conditions = with: (+)-ABA 0.39 µM; result = 6.45%
conditions = with: (+)-ABA 200 µM; result = 3.63%

Further values, each from its own experiment
P1: PafA, mature enzyme, eGFP fusion (Elizabethkingia meningoseptica, UniProt Q9KJX5); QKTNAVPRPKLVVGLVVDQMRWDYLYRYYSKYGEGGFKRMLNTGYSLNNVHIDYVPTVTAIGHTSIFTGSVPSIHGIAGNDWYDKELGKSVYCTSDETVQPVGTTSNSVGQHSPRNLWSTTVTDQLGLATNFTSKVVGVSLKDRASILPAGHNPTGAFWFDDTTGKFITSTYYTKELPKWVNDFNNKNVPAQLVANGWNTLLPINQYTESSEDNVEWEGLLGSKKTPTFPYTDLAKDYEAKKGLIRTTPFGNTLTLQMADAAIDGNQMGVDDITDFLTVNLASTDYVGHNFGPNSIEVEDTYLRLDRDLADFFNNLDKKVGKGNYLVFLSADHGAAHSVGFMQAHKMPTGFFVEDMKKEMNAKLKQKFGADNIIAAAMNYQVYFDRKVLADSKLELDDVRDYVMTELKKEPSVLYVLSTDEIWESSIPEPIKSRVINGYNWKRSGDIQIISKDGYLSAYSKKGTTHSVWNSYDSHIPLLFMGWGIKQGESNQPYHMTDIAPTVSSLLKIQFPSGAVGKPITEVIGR
Substance = TPR (Homo sapiens, UniProt P12270); tested on = NUP153 (Homo sapiens, UniProt P49790); test = cross-linking MS; conditions = hits only; endpoint = interaction screen; result = cross-linked
Substance = P1 S65G; tested on = vanadate, free oxyanion; test = microfluidic competitive inhibition; system = in vitro, cell-free expressed; conditions = not given, derived from inhibition constants, unchanged parent 676 nM; how to read = lower = stronger binding; endpoint = oxyanion analog dissociation constant; result = 1030 nM
Substance = CLIP1 (Homo sapiens, UniProt P30622); tested on = MDH2 (Homo sapiens, UniProt P40926); test = cross-linking MS; system = cell fractions; conditions = with: DHSO; endpoint = cross-linked residues; result = E1122 to D221
Substance = HSP90AB1 (Homo sapiens, UniProt P08238); tested on = MYH9 (Homo sapiens, UniProt P35579); test = cross-linking MS; system = cell fractions; conditions = with: DMTMM; endpoint = cross-linked residues; result = E368 to K202
Substance = PHB1 (Homo sapiens, UniProt P35232); tested on = LYSMD3 (Homo sapiens, UniProt Q7Z3D4); test = cross-linking MS; system = cell fractions; conditions = with: DHSO; endpoint = cross-linked residues; result = D217 to D165

Some of these lines once more (series 2):
conditions = with: (+)-ABA 17 µM; result = 9.93%
conditions = with: (+)-ABA 0.39 µM; result = 6.45%
conditions = with: (+)-ABA 200 µM; result = 3.63%
